Published values gathered from unrelated publications.
Every numbered part comes from another study and shows a few of its results, in no order. Changes are numbered by the printed parent chain.

Series 1 — technique: RNA Bind-n-Seq; molecule type: RNA; matrix: in vitro; concentration: not given; setting: RNA with constant flanks, ends assumed; reference: input RNA pool; direction: higher = stronger binding
Target: RING finger protein unkempt homolog, zinc fingers 1-6, GST-SBP tag (UNK, Homo sapiens, UniProt Q9C0B0, residues 30-357)
All sequences stand within: GGGAGUUCUACAGUCCGACGAUC … CAACAGAGGAUUGAGCAUCA
Residues (chain): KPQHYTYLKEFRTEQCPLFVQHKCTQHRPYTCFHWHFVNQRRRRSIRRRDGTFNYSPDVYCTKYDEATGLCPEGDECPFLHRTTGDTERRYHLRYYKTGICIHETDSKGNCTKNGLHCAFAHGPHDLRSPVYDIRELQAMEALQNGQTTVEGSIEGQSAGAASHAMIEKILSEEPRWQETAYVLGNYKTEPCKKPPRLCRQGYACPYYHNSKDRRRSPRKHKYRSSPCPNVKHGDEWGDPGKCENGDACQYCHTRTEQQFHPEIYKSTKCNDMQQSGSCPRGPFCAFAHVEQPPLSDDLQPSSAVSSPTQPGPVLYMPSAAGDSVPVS
Sequence	bound/input enrichment
GGAUUUGGAGAUGCAGUGGAUAAUAGUAAUUGCUGGCAGCCUGUUAUCGACUACAUUGACCGUAAAUUUGAGGACUACCUAAAUGCAGAAUCACGAGUGAACAGACGUCAGAUGCCUGAU	0.32 ratio
UGUUGCUGCCUUUAUGGACAUGGGUACCAAUUGCUUUUGUAAUAUGGUAAAAAUGUGAGCCCGCACUUCUGCGUUCCUUUUGAUUUUUUUUUUUUAACAUGUAUUCAGAUUGAGAAAUAU	0.341 ratio
GGGAUCACUCCGUCGCACCCACCAUGAUGGAAGACGACGGACAGCCCCGGACUCUAUACGCCGGUAACCUCUCCAGAGAUGUGACAGAAGUCCUUAUUCUUCAGUUAUUCAGUCAGAUCG	0.0509 ratio
AAUGCUGUUCGCCAAAAUGGACAGCUGGUCAGAAAUGAUUCUCUGUAUGGCAUUUCAAAUACCGAUACAACCAUUGAAGGAACGUCAGAUGACCUGACUGUUGUAGAUGCAGCUUCACUA	0.147 ratio
CAGAGGAACCAAUGGGCAUUGGUGGCUCCUGUACCACAUUCCUUUUAUUCAUUUGAACUAACCGUGGUUCAGAAUUAUCUUUACGCUGUCAACAGUAAGCGCAUGCUCUGCUAUGAUCCU	0.164 ratio
GAUCCUCCACGAUUACGUGAAUAAAAUGAUGGAACCAAAAAUCACUGUCACUUUACAACUCCGGUUUUACUCUUUUCUUUCUACAGACCAUAUUUUUAAAGAAAUGUUUAUACAAUAAUU	0.218 ratio
CUCACACCGUGUGUGGUCCAGGCUGUACCUUCAGAUCUUUAUGUGGUUCCAAAAUGUCCUCCGCUGCCCUGUGGCCUGAAGGAAUCCAGAGCCAGGGAGCAAUAUGCUGAUAGCAGGGUG	0.144 ratio
GUGGUGACUGAGUUCCCUUUAUCAAACCCUUCAGUGGGCACAAAAUUGAGUGCUUGAUUUCCGGUUUUAUUUUUUUAUGAAUGUCCAAAUCUGUGUUUCCCCCUGCCCUCCCAGACUGUG	1.52 ratio
CUCGGACCCCAGCGUCGGAAGCUGCUUUCGGGGCAUGAGCUGAGGGCACAGCUCUGAGGCCCGCAGUAUUUCUCAGAGAUUGAUGGAAACAGAAACCAAAACUCUUCCCCUGGAGAAUGC	0.154 ratio
AAGAAGAAGCAAGGGGAAGAUAACUCUCACACACAGGACACAGAAGACCUAGAAAAGGACACCCGAGAAGAGCUUCCAGUGAAUACCUCAAAAGCCCGACCAAAACAGGAGAAAGCUUGU	0.358 ratio
GAAAAACUGUUUGCUGAAGACACAGAGGCAAAGAAUCCAUUUUCAACUCAGGACACUGAUUCCGAUUUGGAGAUGCUGGCUCCCUAUAUCCCAAUGGAUGAUGAUUUCCAGUUACGUUCC	0.145 ratio

Series 2 — technique: protein binding microarray; molecule type: double-stranded DNA, one strand shown; matrix: in vitro; concentration: not given; reference: not given; direction: higher = stronger binding
Target: Histone acetyltransferase KAT6A, both winged helices, GST fusion (KAT6A, Homo sapiens, UniProt Q92794, residues 1-181)
Setting: 8-mer, flanks averaged, mean of 2 arrays, mostly near background
Construct (chain): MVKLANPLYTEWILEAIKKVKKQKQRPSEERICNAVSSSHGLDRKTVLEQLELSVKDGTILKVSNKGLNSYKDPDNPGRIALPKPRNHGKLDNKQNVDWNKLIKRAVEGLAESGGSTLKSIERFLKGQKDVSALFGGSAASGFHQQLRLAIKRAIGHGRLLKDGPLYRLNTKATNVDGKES
Sequence	E-score
CCTAAGTA	-0.101
GCACGTAA	0.0588
GCGACGAA	0.00582
ATGAGCCA	-0.227
GACCGACA	0.199
ACTTACCT	-0.201
AAGTCGAT	-0.0716
CATATGGC	0.00626
AGAAGAAT	-0.164
GGGATCCA	0.0548
CGTATTTC	-0.0123
CACAGGCC	-0.149
ATGGGTAG	-0.107
CGCTTTCA	0.158
TACGGCAA	0.318
ATTCGATA	-0.0381
AACAGAAG	-0.156
GTTACATA	-0.0658
CCGCACAA	0.171
AGTCCTTG	-0.145
CAATCTTC	-0.159
CAAGGCCG	0.0987
CAACTAGC	0.0133
GGATAACA	-0.155
TCATCACA	-0.162

Series 3 — technique: RNA Bind-n-Seq; molecule type: RNA; matrix: in vitro; concentration: 1 µM; setting: whole 134-nt RNA, ends assumed; together with: 150 mM KCl; reference: input library; direction: higher = stronger binding
Target: Ras GTPase-activating protein-binding protein 1, RRM domain (G3BP1, Homo sapiens, UniProt Q13283)
Sequence of UniProt Q13283 (whole entry, looked up): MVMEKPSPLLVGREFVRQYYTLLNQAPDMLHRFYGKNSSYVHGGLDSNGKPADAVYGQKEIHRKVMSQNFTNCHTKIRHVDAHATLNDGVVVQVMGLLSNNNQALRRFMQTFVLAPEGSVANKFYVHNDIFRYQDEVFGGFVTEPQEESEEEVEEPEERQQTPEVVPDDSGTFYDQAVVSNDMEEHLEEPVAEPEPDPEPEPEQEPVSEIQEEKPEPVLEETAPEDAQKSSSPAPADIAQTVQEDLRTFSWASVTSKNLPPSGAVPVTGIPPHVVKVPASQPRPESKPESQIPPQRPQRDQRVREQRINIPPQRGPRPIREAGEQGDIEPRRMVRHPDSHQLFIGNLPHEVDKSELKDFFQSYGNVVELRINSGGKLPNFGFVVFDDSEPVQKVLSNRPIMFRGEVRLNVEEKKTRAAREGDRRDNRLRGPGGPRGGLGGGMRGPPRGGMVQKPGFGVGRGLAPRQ
All sequences stand within: GGGAGUUCUACAGUCCGACGAUC … UGGAAUUCUCGGGUGUCAAGG
Sequence	log2 enrichment
CACAGACAACACGCACCAAAACAGACACAGAGGGAAGGGGUUGGGAUGGGGACAGGGUGCACAGCAGGGCGGGGUAGGACCCCAGCCCCU	-0.0446
UCCUGUGCUACACAUCGUAUGUACCGAAUCGGGAAAAAAGGGGAAAAAAGGAAAAAAGGGAAAGUAUUAUGUUACGCCGUUCGGAUCUGC	0.0395
GCAGGAAGUAAAAACAAAUGGAAAUACUUCGGAUAGUGGCAGGGGUGGGGGUUGCUAAGGAAAGGGUGGGAUGGGAGUGGGUAAAGAGUU	1.38
CUCAAGUCCUGUGCUACACAUCGUAUGUACCGAAUCGGGUUGGUUGGGGUUGGAAAGUAUUAUGUUACGCCGUUCGGAUCUGCACUUCCA	-0.206
AAGUCCUGUGCUACACAUCGUAUGUACCGAAUCGGGAAAGGGAAAGGGUUUUUGGGAAAGUAUUAUGUUACGCCGUUCGGAUCUGCACUU	0.535
CCUGUGCUACACAUCGUAUGUACCGAAUCAAAUUUUUUUAAACCCCCAAACCCCCCCAAAAAAGUAUUAUGUUACGCCGUUCGGAUCUGC	-1.29
UCCUCAAGUCCUGUGCUACACAUCGUAUGUACCGAAUCGGAGGGGAGGGAGGAAAGUAUUAUGUUACGCCGUUCGGAUCUGCACUUCCAG	-0.193
CUGUGCUACACAUCGUAUGUACCGAAUCGGCCCCCCCGGGGCCCCCCCGGGGCCCCCCCGGGAAAGUAUUAUGUUACGCCGUUCGGAUCU	-0.621
UAACUUUAGAGGAGGAUCUGAUGGAUAUGCCAGUGGACGUGGAUUUGGGGAUGGCUAUAAUGGGUAUGGAGGAGGACCUGGAGGUGGCAA	-0.785
GUCCUGUGCUACACAUCGUAUGUACCGAAUCGGGAAAAAGGGUUUUUGGGUUUUUGGGAAAGUAUUAUGUUACGCCGUUCGGAUCUGCAC	0.062
CAAGUCCUGUGCUACACAUCGUAUGUACCGAAUCGGGGUUUGGGGUGGGGAGGGGAAAGUAUUAUGUUACGCCGUUCGGAUCUGCACUUC	0.969
GCAGGAAGUAAAAACAAAUGGAAAUGCUUCGGAUAGUGGCUGGGGUGGGGGUUGCUAAGGAAAGGGUGGGAUGGGAGUGGGUAAAGAGUU	0.745
CACAGACAACACGCACCCACACAGACACAGAGGGAAGGGGUAAAGAUGGGGACAGGGUGCACAGCAGGGCGGGGUAGGACCCCAGCCCCU	-0.137
AAGUCCUGUGCUACACAUCGUAUGUACCGAAUCGGUUUUGGUUUUGGGUUUUGGGGAAAGUAUUAUGUUACGCCGUUCGGAUCUGCACUU	-0.258

Series 4 — technique: universal PBM; molecule type: double-stranded DNA, one strand shown; matrix: in vitro; concentration: not given; direction: higher = stronger binding
Target: Sal-like protein 4, full length isoform B (SALL4, Homo sapiens, UniProt Q9UJQ4-2, residues 1-616)
Setting: 8-mer, flanks averaged, mean of replicates
Sequence	E-score
ATTAGACG	0.19
CTACTGCC	-0.189
CCCCATAC	-0.0259
AGCGCGTG	-0.179
AATCGCGT	-0.0858
GGCCTACC	-0.335
CCGACGGA	-0.207
GACCCGAA	-0.25
GCTGGTAC	-0.189
TGCCAAAA	0.0646
GGCTATAC	-0.103
ACCAATCT	-0.0146
AAATCGGT	-0.00696
AGCCCTGC	-0.253
AATGGTCG	-0.0851
GCGCACCA	-0.149
CTGGCAAA	-0.0413
ACAGAGGA	-0.0364
AGCTCTGG	-0.128
CCTGGGAG	-0.347
CGGCGACG	-0.341
CGACCTGC	-0.216
GATCAAGA	0.122
CATGTAGG	0.135
AAGTCAAA	0.147

Series 5 — technique: DHFR PCA, deep sequencing; matrix: yeast; together with: (+)-ABA 0.032 µM; reference: wild-type fitted maximum; direction: higher = stronger binding
Target: ABI1, truncated, D143A, DHFR fusion (Arabidopsis thaliana)
Setting: methotrexate growth selection, single substitutions
Starting sequence: PYL1, truncated, DHFR fusion (Arabidopsis thaliana); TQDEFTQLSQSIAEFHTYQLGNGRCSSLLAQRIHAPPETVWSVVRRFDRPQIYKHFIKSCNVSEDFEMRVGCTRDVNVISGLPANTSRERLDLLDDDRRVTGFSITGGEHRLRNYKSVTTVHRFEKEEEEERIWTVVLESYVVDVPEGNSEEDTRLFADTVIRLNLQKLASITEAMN
Variant	relative binding score
I57Q	-7.84%
G71I	5.07%
H34Y	23.2%
V40G	-3.3%
S63G	38.1%
I79K	6.63%
E89R	-0.338%
E131K	55.8%
R132S	54.2%
L166N	-0.369%
D97A	28.5%
S63Y	-15.9%
D144T	-4.57%
L8C	4.15%
E152F	-4.01%
R69T	24.2%
S117Y	-2.62%
W134D	19.4%
R98C	-0.421%
I162L	3.58%
G81C	12.5%

Series 6 — technique: protein-binding microarray; molecule type: double-stranded DNA, one strand shown; matrix: in vitro; concentration: 250 nM; setting: 60-bp whole probe; together with: salmon DNA 0.4 mg/ml; reference: random background probes; direction: higher = stronger binding; all sequences stand within: GCCTAGCAC … GTCTTGATTCGCTTGACGCTGCTG
Target: Interferon regulatory factor 7, full length, phosphomimetic (IRF7, Homo sapiens, UniProt Q92985, residues 1-503, S101K/S471D/S472D/S475D/S476D/S477D/S483D/S484D/S487D)
Sequence of UniProt Q92985 (whole entry, unmodified, looked up): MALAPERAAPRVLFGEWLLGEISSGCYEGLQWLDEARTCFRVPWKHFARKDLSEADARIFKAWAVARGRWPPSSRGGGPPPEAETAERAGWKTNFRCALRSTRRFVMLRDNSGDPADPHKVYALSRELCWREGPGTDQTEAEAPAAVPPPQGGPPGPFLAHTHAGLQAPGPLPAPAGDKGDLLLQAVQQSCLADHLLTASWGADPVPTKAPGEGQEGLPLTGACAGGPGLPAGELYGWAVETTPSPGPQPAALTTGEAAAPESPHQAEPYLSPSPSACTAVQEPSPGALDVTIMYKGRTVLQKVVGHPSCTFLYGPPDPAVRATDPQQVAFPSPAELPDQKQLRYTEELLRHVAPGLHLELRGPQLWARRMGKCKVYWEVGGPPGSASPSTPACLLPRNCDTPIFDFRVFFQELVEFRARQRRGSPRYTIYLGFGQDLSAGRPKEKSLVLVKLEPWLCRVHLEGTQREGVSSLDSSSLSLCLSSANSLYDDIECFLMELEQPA
Sequence	log fluorescence [z-score]
GCCCCTCTCCTCTCAGGAGCTGTGCTA	0.319
GACGGTTCCCTTTTCCTCACGTGCTAG	3.5
GATGATCTCAGACTGGAGACGTGCTAG	-0.627
GACGATGTCGGGTTTCGAGACGTGCTA	1.84
TCAGGTATCGGGACTGGGTTAGTGCTA	0.127
TTAGGTTTCGGGTATCGGTTCGTGCTA	8.26
GACGGTTTCGACACTGGGCACGTGCTA	3.68
GACGAACGGGGGTATCGAGACGTGCTA	0.605
AGCTCTTTCGTTACTTCCTCGTGCTAG	0.706
TTAGATATCGGGAGTGGATTAGTGCTA	-0.324
GATGGTCTCGGTCTCGGGACGTGCTAG	0.869
GACGGTTTCGGGCTCGGGACGTGCTAG	3.14
TCAAGTTTCACTTTCCAACTGTGCTAG	9.72
TTAGGTTTCGACGCTGGGTTAGTGCTA	1.73
GAGTTTCCATTTTCTGAATGCGTGCTA	9.8
TTAGGTCTCGGGTTCGGTTAGTGCTAG	4.42

Excerpt of the above (series 2):
Sequence	E-score
ATGAGCCA	-0.227
GACCGACA	0.199
ACTTACCT	-0.201
AAGTCGAT	-0.0716
CATATGGC	0.00626
AGAAGAAT	-0.164
GGGATCCA	0.0548
CGTATTTC	-0.0123
